# Experimental data gathered from unrelated publications.
# Protocols differ between the studies behind these lines.
# Technique: steady-state kinetics
# B1: CstB (Staphylococcus aureus, UniProt G5ELA4); chain MFFKQFYDNHLSQASYLVGCQRTGEAIIIDPVRDLSKYIEVADSEGLTITQATETHIHADFASGIRDVAKRLNANIYVSGEGEDALGYKNMPSKTQFVKHGDIIQVGNVKLEVLHTPGHTPESISFLLTDLGGGSSVPMGLFSGDFIFVGDIGRPDLLEKSVQIKGSTEISAKQMYESVQNIKNLPDYVQIWPGHGAGSPCGKALGAIPISTIGYEKINNWAFNEIDETKFIESLTSNQPAPPHHFAQMKQVNQFGMNLYQSYDVYPSLDNKRVAFDLRSKEAFHGGHTKGTINIPYNKNFINQIGWYLDFEKDIDLIGDKSTVEKAKHTLQLIGFDKVAGYRLPKSGISTQSVHSADMTGKEEHVLDVRNDEEWNNGHLDQAVNIPHGKLLNENIPFNKEDKIYVHCQSGVRSSIAVGILESKGFENVVNIREGYQDFPESLK
# B2: WlbA (Thermus thermophilus, UniProt Q72KX8); chain MTRFALTGLAGYIAPRHLKAIKEVGGVLVASLDPATNVGLVDSFFPEAEFFTEPEAFEAYLEDLRDRGEGVDYLSIASPNHLHYPQIRMALRLGANALSEKPLVLWPEEIARLKELEARTGRRVYTVLQLRVHPSLLALKERLGQEKGAKDVVLTYVTGRGKWYGKSWKVDEAKSGGLATNIGIHFFDLLAWLFGRALHVEVHARTPTVNAGYLELEGARVRWFLSIDPSFVPEPLRRQGKRTYRSIAVDGEEVEFSEGFTDLHTEVYRKTLAGEGFGLDEAAEAIRVAALLRTLPLSQPSPENRHPFLG
# B3: carbamoyl phosphate synthetase large subunit L648E (Escherichia coli, UniProt P00968); chain PKRTDIKSILILGAGPIVIGQACEFDYSGAQACKALREEGYRVILVNSNPATIMTDPEMADATYIEPIHWEVVRKIIEKERPDAVLPTMGGQTALNCALELERQGVLEEFGVTMIGATADAIDKAEDRRRFDVAMKKIGLETARSGIAHTMEEALAVAADVGFPCIIRPSFTMGGSGGGIAYNREEFEEICARGLDLSPTKELLIDESLIGWKEYEMEVVRDKNDNCIIVCSIENFDAMGIHTGDSITVAPAQTLTDKEYQIMRNASMAVLREIGVETGGSNVQFAVNPKNGRLIVIEMNPRVSRSSALASKATGFPIAKVAAKLAVGYTLDELMNDITGGRTPASFEPSIDYVVTKIPRFNFEKFAGANDRLTTQMKSVGEVMAIGRTQQESLQKALRGLEVGATGFDPKVSLDDPEALTKIRRELKDAGADRIWYIADAFRAGLSVDGVFNLTNIDRWFLVQIEELVRLEEKVAEVGITGLNADFLRQLKRKGFADARLAKLAGVREAEIRKLRDQYDLHPVYKRVDTCAAEFATDTAYMYSTYEEECEANPSTDREKIMVLGGGPNRIGQGIEFDYCCVHASLALREDGYETIMVNCNPETVSTDYDTSDRLYFEPVTLEDVLEIVRIEKPKGVIVQYGGQTPEKLARALEAAGVPVIGTSPDAIDRAEDRERFQHAVERLKLKQPANATVTAIEMAVEKAKEIGYPLVVRPSYVLGGRAMEIVYDEADLRRYFQTAVSVSNDAPVLLDHFLDDAVEVDVDAICDGEMVLIGGIMEHIEQAGVHSGDSACSLPAYTLSQEIQDVMRQQVQKLAFELQVRGLMNVQFAVKNNEVYLIEVNPRAARTVPFVSKATGVPLAKVAARVMAGKSLAEQGVTKEVIPPYYSVKEVVLPFNKFPGVDPLLGPEMRSTGEVMGVGRTFAEAFAKAQLGSNSTMKKHGRALLSVREGDKERVVDLAAKLLKQGFELDATHGTAIVLGEAGINPRLVNKVHEGRPHIQDRIKNGEYTYIINTTSGRRAIEDSRVIRRSALQYKVHYDTTLNGGFATAMALNADATEKVISVQEMHAQIK
# B4: Paox H64Q (Mus musculus, UniProt Q8C0L6); chain MAFPGPRVLVVGSGIAGLGAAQKLCSHRAAPHLRVLEATASAGGRIRSERCFGGVVELGAHWIQGPSQDNPVFQLAAEFGLLGEKELSEENQLVDTGGHVALPSMIWSSSGTSVSLELMTEMARLFYGLIERTREFLNESETPMASVGEFLKKEISQQVASWTEDDEDTRKRKLAILNTFFNIECCVSGTHSMDLVALAPFGEYTVLPGLDCILAGGYQGLTDRILASLPKDTVAFDKPVKTIHWNGSFQEAAFPGETFPVLVECEDGARLPAHHVIVTVPLGFLKEHQDTFFEPPLPAKKAEAIKKLGFGTNNKIFLEFEEPFWEPDCQFIQVVWEDTSPLQDTALSLQDTWFKKLIGFLVQPSFESSHVLCGFIAGLESEFMETLSDEEVLLSLTQVLRRVTGNPQLPAAKSVRRSQWHSAPYTRGSYSYVAVGSTGDDLDLMAQPLPEDGTGTQLQVLFAGEATHRTFYSTTHGALLSGWREADRLVSLWDSQVEQSRPRL
# B5: RbgA (Bacillus subtilis, UniProt O31743); chain MTIQWFPGHMAKARREVTEKLKLIDIVYELVDARIPMSSRNPMIEDILKNKPRIMLLNKADKADAAVTQQWKEHFENQGIRSLSINSVNGQGLNQIVPASKEILQEKFDRMRAKGVKPRAIRALIIGIPNVGKSTLINRLAKKNIAKTGDRPGITTSQQWVKVGKELELLDTPGILWPKFEDELVGLRLAVTGAIKDSIINLQDVAVFGLRFLEEHYPERLKERYGLDEIPEDIAELFDAIGEKRGCLMSGGLINYDKTTEVIIRDIRTEKFGRLSFEQPTM
# B6: protein (Streptomyces coelicolor, UniProt Q9K464); chain MAAYLCAPAVIHGEHSVETREIVEEVRGRHPHAPWAPRIDGIAASTGIESRGWMLPLEAAVAPGGGGDLGAAREALVRDGFTEQDANRAIAALKAVPASQTVQERTAPAWEAVQAYGERAARGALQIAGLDVADVDCLITSNSTTPALPGLDVALANRLPLRGDTMLLPATQWACVAGTRSLALAADLVAADPDRVVLVVISEALSTTYQPADDTLESLIVRLLFADTAVAAVVTGRPRPESVLRLDAAWHHTLPGTRDLHRLETRADGTHFVMDRRGPRAVQETVTAMWEWLRVRYEDDPSSWHPDVLLAHPGGTRVLEYMEQTMPDEWPSGLLSYSRDSYTSGNRGGAAVFDILRRAHDAGQKTGSRAVLYAAAPGLTATALEGEWL
# B7: BaiA2 (Clostridium scindens, UniProt P19337); chain MNLVQDKVTIITGGTRGIGFAAAKIFIDNGAKVSIFGETQEEVDTALAQLKELYPEEEVLGFAPDLTSRDAVMAAVGQVAQKYGRLDVMINNAGITSNNVFSRVSEEEFKHIMDINVTGVFNGAWCAYQCMKDAKKGVIINTASVTGIFGSLSGVGYPASKASVIGLTHGLGREIIRKNIRVVGVAPGVVNTDMTNGNPPEIMEGYLKALPMKRMLEPEEIANVYLFLASDLASGITATTVSVDGAYRP
# B8: putA (Rhodobacter capsulatus, UniProt D5AN87); chain MTDLSALGPKAKFAPEAEVLQALVAQAALPQPQLDRIAARGADLVARIRAEAKPSLMEHFLAQYGLSTREGVALMCLAEAMLRVPDTATIDALIEDKIAPSDWGKHLGTAASSLVNASTWALMLTGKVLDDGAGGIAGTLRGAMRRLGEPVIRAAVGQAMREMGRQFVLGETIEKALERAEKREAEGYTFSYDMLGEAALTAADAERYRLAYAQAITAIGKAATRGSIAANPGISIKLSALHPRYEVAQEARVMAELVPVVRDLARAAARAGIALHIDAEEQDRLALSLRVMAAVIADPETAGWEGFGAVVQAYGKRAGAAIDALAAMARAAGRRINIRLVKGAYWDAEMKRAQVEGHPGFPLFTSKTGTDVAYICLAAKLFGLNDCIYPQFATHNAHTVAAVLEMAAGRPFEFQRLHGMGARLHDIVLRETGGRCRIYAPVGAHRDLLAYLVRRLLENGANSSFVNQIVNESVPPAEVAACPFAALPTARAPRGLLAPADLFGAGRVNAQGFDLSDPEVLARIEAARDVTLPDAAPIVAGPVSGTLRPVRNPATGAVVAQVTEADAATVALALDAAQVWSAPAATRAAVLCRAADLYEENFGPIFAALAQEAGKTLGDAVSELREAVDFLRYYAAEGAADTRPPRGAVVAISPWNFPLAIFTGQVAAALMAGNAVLAKPAEQTPIIAALAVRLLHQAGVPETALQLLPGDGPTVGAALTRDPRVAGVVFTGSTETAQIIARAMAAHLAPGTPLIAETGGLNAMVVDSTALPEQAVRDVVASAFRSAGQRCSALRCLYVQDDIAPHLIGMLKGAMEELVSGDPARLSTDVGPVIDAEAKAGIETYLAANKARILHRSTAPEGGHFVAPALLQVGGIADLEREIFGPVLHLATFAAEDLPAVIAAINARGYGLTFGLHSRIDARVETVAETIRAGNIYVNRNQIGAVVGSQPFGGEGLSGTGPKAGGPLYLNRFYAPEPVVAVGGWTEAATPILPEARETQLDEIFLPGPTGELNRLTRHQRGPILCLGPGAEAASAQAAAVVALGGQAVQASGAVSPKALETLTPLAGVLWWGAAEMGRAYAQALAVRPGPLVPLITAKPDLAHVAHERHLCVDTT
# UniProt Q47898, sequence (whole entry, looked up): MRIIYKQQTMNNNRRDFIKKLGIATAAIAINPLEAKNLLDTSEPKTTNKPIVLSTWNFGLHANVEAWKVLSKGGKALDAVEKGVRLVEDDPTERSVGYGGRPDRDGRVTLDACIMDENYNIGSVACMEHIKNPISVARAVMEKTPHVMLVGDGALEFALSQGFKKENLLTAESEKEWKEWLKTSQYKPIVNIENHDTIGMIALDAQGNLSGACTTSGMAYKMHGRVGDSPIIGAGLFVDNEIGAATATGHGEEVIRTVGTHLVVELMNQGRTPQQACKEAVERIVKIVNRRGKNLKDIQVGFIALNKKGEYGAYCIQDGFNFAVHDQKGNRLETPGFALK
# UniProt Q2FXA5, sequence (whole entry, looked up): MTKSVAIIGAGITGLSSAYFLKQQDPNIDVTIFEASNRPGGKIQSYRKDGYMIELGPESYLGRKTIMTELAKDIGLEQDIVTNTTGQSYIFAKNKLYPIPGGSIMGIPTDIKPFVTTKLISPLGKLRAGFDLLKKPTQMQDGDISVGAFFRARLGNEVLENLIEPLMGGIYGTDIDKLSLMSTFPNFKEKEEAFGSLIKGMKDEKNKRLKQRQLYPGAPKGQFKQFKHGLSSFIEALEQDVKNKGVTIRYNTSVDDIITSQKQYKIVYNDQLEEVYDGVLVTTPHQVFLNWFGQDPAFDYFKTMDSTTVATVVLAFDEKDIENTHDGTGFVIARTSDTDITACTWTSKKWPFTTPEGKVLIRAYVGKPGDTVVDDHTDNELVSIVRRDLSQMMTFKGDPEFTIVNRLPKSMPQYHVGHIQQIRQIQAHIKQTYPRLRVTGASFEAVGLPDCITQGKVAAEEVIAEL
Molecule,substrate,pH,temperature,setting,together with,Km
B1 (CstB),N[C@@H](CSS)C(=O)N[C@H]1[C@@H](O[C@@H](CC(=O)O)C(=O)O)O[C@H](CO)[C@@H](O)[C@@H]1O,pH 6,25 °C,"NaBr 100 mM, air-saturated","Fe(II), O2",1800 µM
B2 (WlbA),O=C(O)CCC(=O)C(=O)O,pH 8.5,25 °C,,enzyme-bound NAD(H),2350 µM
B3,Nc1ncnc2c1ncn2[C@@H]1O[C@H](COP(=O)(O)OP(=O)(O)OP(=O)(O)O)[C@@H](O)[C@H]1O,pH 7.6,,KCl 100 mM,"glutamine 10 mM, ornithine 10 mM",1200 µM
"enzyme (Staphylococcus aureus, UniProt Q2FXA5)",Cc1c2[nH]c(c1CCC(=O)O)Cc1[nH]c(c(CCC(=O)O)c1C)Cc1[nH]c(c(CCC(=O)O)c1C)Cc1[nH]c(c(C)c1CCC(=O)O)C2,pH 8,37 °C,,,6.7 µM
"enzyme (Elizabethkingia miricola, UniProt Q47898)",CC(=O)N[C@@H]1[C@@H](O)[C@H](O)[C@@H](CO)O[C@H]1NC(=O)C[C@H](N)C(=O)O,pH 7.5,37 °C,,,90 µM
B4 (Paox H64Q),c1ccc(CNCCCCNCc2ccccc2)cc1,pH 8.6,30 °C,,,130 µM
B5 (RbgA),Nc1nc2c(ncn2[C@@H]2O[C@H](COP(=O)(O)OP(=O)(O)OP(=O)(O)O)[C@@H](O)[C@H]2O)c(=O)[nH]1,pH 7.5,37 °C,"KCl 200 mM, free enzyme, apparent",GTP 0-1 mM,82.8 µM
B6 (protein),CC(C)C(=O)CC(=O)SCCNC(=O)CCNC(=O)[C@H](O)C(C)(C)COP(=O)(O)OP(=O)(O)OC[C@H]1O[C@@H](n2cnc3c(N)ncnc32)[C@H](O)[C@@H]1OP(=O)(O)O,pH 7.8,30 °C,NaCl 150 mM,methylmalonyl-CoA 1.0 mM,12.1 µM
B7 (BaiA2),C[C@H](CCC(=O)SCCNC(=O)CCNC(=O)[C@H](O)C(C)(C)COP(=O)(O)OP(=O)(O)OC[C@H]1O[C@@H](n2cnc3c(N)ncnc32)[C@H](O)[C@@H]1OP(=O)(O)O)[C@H]1CC[C@H]2[C@@H]3CC[C@@H]4CC(=O)CC[C@]4(C)[C@H]3C[C@H](O)[C@]12C,pH 8.7,37 °C,,NADH,1.5 µM
B8 (putA),O=C(O)[C@@H]1CCCN1,pH 8,23 °C,,,36200 µM

# Excerpt of the above:
Molecule,substrate,pH,temperature,setting,together with,Km
"enzyme (Elizabethkingia miricola, UniProt Q47898)",CC(=O)N[C@@H]1[C@@H](O)[C@H](O)[C@@H](CO)O[C@H]1NC(=O)C[C@H](N)C(=O)O,pH 7.5,37 °C,,,90 µM
B4 (Paox H64Q),c1ccc(CNCCCCNCc2ccccc2)cc1,pH 8.6,30 °C,,,130 µM
